Assay results collected from several papers.
Each line is one published result; not all experiments were run side by side. ± marks the error that the study gave.
Cell line: A549

SMILES = COCC12CCC(OC)C34C5CC6(O)C(OC)C(O)C(O)(C5C6OC(=O)c5ccccc5)C(C(OC)C13)C4N(C)C2 (centres unmarked); read-out = cell growth or viability; technique = MTT; IC50 = 21.5 µM
SMILES = COc1cc(/C=C(\C#N)C(=O)Nc2nnc(C(F)(F)F)s2)ccc1OC(=O)N1CCN(C(=O)CCCC(=O)NCCCC[C@@H]2NC(=O)[C@@H](Cc3ccc(O)cc3)NC(=O)[C@H](CC(=O)O)NC(=O)CNC(=O)[C@H](CCCNC(=N)N)NC2=O)CC1; read-out = cell growth or viability; technique = MTT; IC50 = > 100 µM
SMILES = C[C@H]1C(OCCCCCCCCC[P+](c2ccccc2)(c2ccccc2)c2ccccc2)O[C@@H]2O[C@@]3(C)CCC4[C@H](C)CCC1[C@]42OO3 (some centres unmarked); read-out = cell growth or viability; technique = MTT; time = 72 h; IC50 = 0.224 µM
SMILES = CC(C)[C@H](NC(=O)[C@H](CCCNC(=N)N)NC(=O)[C@H](CCC(=O)O)NC(=O)[C@H](CCCNC(=N)N)NC(=O)[C@@H](NC(=O)[C@H](CCCNC(=N)N)NC(=O)[C@@H](NC(=O)[C@@H]1CCCN1C(=O)[C@H]1CCCN1C(=O)[C@@H](NC(=O)[C@H](CCCNC(=N)N)NC(=O)[C@@H](NC(=O)[C@H](CCCNC(=N)N)NC(=O)[C@@H](NC(=O)[C@H](CCCNC(=N)N)NC(=O)[C@@H](NC(=O)[C@@H](N)CCCCN)C(C)C)C(C)C)C(C)C)C(C)C)[C@@H](C)O)C(C)C)C(=O)N[C@@H](CCCCN)C(N)=O; IC50 = > 1000 µM
SMILES = C[C@H]1C(OCCCCCCCCCC[P+](c2ccccc2)(c2ccccc2)c2ccccc2)O[C@@H]2O[C@@]3(C)CCC4[C@H](C)CCC1[C@]42OO3 (some centres unmarked); read-out = cell growth or viability; technique = MTT; time = 72 h; IC50 = 0.167 µM
SMILES = Cc1[nH]c2cc(Cl)cc(Cl)c2c1CCN; read-out = cell growth or viability; technique = ATP luminescence; time = 72 h; IC50 = 34.4 µM
SMILES = C[C@@H]1O[C@@H](Oc2cc3c(=O)oc4c(O)c(O)cc5c(=O)oc(c2O)c3c45)[C@H](O)[C@H](O)[C@H]1OC(=O)c1cc(O)c(O)c(O)c1; read-out = cell growth or viability; technique = MTT; time = 48 h; IC50 = > 100 µg/mL
SMILES = N.N.O=C([O][Pt]([Cl])([Cl])[O]C(=O)c1ccc(P(c2ccccc2)c2ccccc2)cc1)c1ccc(P(c2ccccc2)c2ccccc2)cc1.[Cl][Au].[Cl][Au]; read-out = cell growth or viability; technique = resazurin; time = 72 h; IC50 = 10.2 µM
SMILES = CCN1CC2(COC)CCC(OC)C34C5CC6(O)C(OC)C(O)C(O)(C5C6OC(=O)c5ccccc5)C(C(OC)C23)C14 (centres unmarked); read-out = cell growth or viability; technique = MTT; IC50 = 16.1 µM
SMILES = C#CCCCC[C@H](C)C[C@@H](C)C(=O)N[C@@H](C)C(=O)N1CCC[C@H]1C(=O)N[C@H](C(=O)N[C@H](C(=O)N[C@H](C(=O)N[C@@H](Cc1ccccc1)C(=O)N1CCC[C@H]1C(=O)N1CCC[C@H]1C(C)=O)C(C)C)C(C)C)C(C)C; read-out = cell growth or viability; technique = SRB; IC50 = 2 µM
SMILES = CCN1CC2(COC)CCC(OC)C34C5CC6C(OC)CC(O)(C5C6OC(=O)c5ccccc5)C(C(OC)C23)C14 (centres unmarked); read-out = cell growth or viability; technique = MTT; IC50 = 13.9 µM
SMILES = C[C@H]1O[C@@H](O[C@H]2CC[C@@]3(C)[C@H](CC[C@@H]4[C@@H]3C[C@@H](O)[C@]3(C)[C@@H](C5=CC(=O)OC5)[C@@H](O)C[C@]43O)C2)C[C@H](O)[C@@H]1O; read-out = cell growth or viability; technique = MTT; time = 48 h; IC50 = 0.67 µM
SMILES = CCN1CC2(COC)CCC(OC)C34C5CC6C(OC)CC(C5C6O)C(C(OC)C23)C14 (centres unmarked); read-out = cell growth or viability; technique = MTT; IC50 = 8.36 µM
SMILES = C#CCCCC[C@H](C)C[C@@H](C)C(=O)N(C)[C@@H](C)C(=O)N1CCC[C@H]1C(=O)N(C)[C@H](C(=O)N(C)[C@H](C(=O)OC)C(C)C)C(C)C; read-out = cell growth or viability; technique = SRB; IC50 = 1 µM
SMILES = C[C@H]1C(OCCCCCCCCCCC[P+](c2ccccc2)(c2ccccc2)c2ccccc2)O[C@@H]2O[C@@]3(C)CCC4[C@H](C)CCC1[C@]42OO3 (some centres unmarked); read-out = cell growth or viability; technique = MTT; time = 72 h; IC50 = 0.185 µM
SMILES = [Ga+3].[O-]c1ccc(Br)c2cccnc12.[O-]c1ccc(Br)c2cccnc12.[O-]c1ccc(Br)c2cccnc12; read-out = cell growth or viability; technique = MTT; time = 72 h; IC50 = 8.7 µM
SMILES = C=CC[P](c1ccccc1)(c1ccccc1)[Pt]([S]c1nc2ccccc2[nH]1)([S]c1nc2ccccc2[nH]1)[P](CC=C)(c1ccccc1)c1ccccc1; read-out = cell growth or viability; technique = MTT; IC50 = 18.6 µM
SMILES = C[C@H]1O[C@@H](O[C@H]2CC[C@@]3(C)[C@H](CC[C@@H]4[C@@H]3CC[C@]3(C)[C@@H](C5=CC(=O)OC5)[C@@H](O)C[C@]43O)C2)C[C@H](O)[C@@H]1O[C@@H]1O[C@H](CO)[C@@H](O)[C@H](O)[C@H]1O; read-out = cell growth or viability; technique = MTT; time = 48 h; IC50 = 0.14 µM
SMILES = CCCCCCCCCCCCCCC(=O)O.O=C1CCCC2C3CCCN4CCCC(CN12)C34 (centres unmarked); read-out = cell growth or viability; technique = MTT; time = 24 h; IC50 = 170 µM
SMILES = CCN1CC2(COC)CCC(OC)C34C5CC6C(OC)CC(O)(C(CC23)C14)C5C6OC(C)=O (centres unmarked); read-out = cell growth or viability; technique = MTT; IC50 = 18.5 µM
SMILES = C=CC[P](c1ccccc1)(c1ccccc1)[Pt]([Cl])([Cl])[P](CC=C)(c1ccccc1)c1ccccc1; read-out = cell growth or viability; technique = MTT; IC50 = 22.5 µM
SMILES = C[C@H]1C(OCCCCCCCCCCCC[P+](c2ccccc2)(c2ccccc2)c2ccccc2)O[C@@H]2O[C@@]3(C)CCC4[C@H](C)CCC1[C@]42OO3 (some centres unmarked); read-out = cell growth or viability; technique = MTT; time = 72 h; IC50 = 0.189 µM
SMILES = COCC12CCC(OC)C34C5CC6(O)C(O)C5C(O)(C(O)C6OC)C(C(OC)C13)C4N(C)C2 (centres unmarked); read-out = cell growth or viability; technique = MTT; IC50 = 12.3 µM
SMILES = C[C@H]1C(OCCCCCCC[P+](c2ccccc2)(c2ccccc2)c2ccccc2)O[C@@H]2O[C@@]3(C)CCC4[C@H](C)CCC1[C@]42OO3 (some centres unmarked); read-out = cell growth or viability; technique = MTT; time = 72 h; IC50 = 0.138 µM
SMILES = N.N.O=C([O][Pt]([OH])([Cl])[Cl])c1ccc(P(c2ccccc2)c2ccccc2)cc1.[Cl][Au]; read-out = cell growth or viability; technique = resazurin; time = 72 h; IC50 = 15 µM
SMILES = C1=CCCC=CCC1.C1=CCCC=CCC1.O=C(N=P12CN3CN(CN(C3)C1)C2)c1cccc[c]1[Pt+].O=C(N=P12CN3CN(CN(C3)C1)C2)c1cccc[c]1[Pt+].[Cl][Hg-]([Cl])[Cl].[Cl][Hg-]([Cl])[Cl].[Cl][Hg][Cl].[Cl][Hg][Cl]; read-out = cell growth or viability; technique = MTT; time = 24 h; IC50 = 20.8 µM
SMILES = CC(=O)O[C@H]1C[C@H](O[C@H]2[C@@H](O)C[C@H](O[C@H]3[C@@H](O)C[C@H](O[C@H]4CC[C@@]5(C)[C@H](CC[C@@H]6[C@@H]5CC[C@]5(C)[C@@H](C7=CC(=O)OC7)[C@@H](O)C[C@]65O)C4)O[C@@H]3C)O[C@@H]2C)O[C@H](C)[C@H]1O[C@@H]1O[C@H](CO)[C@@H](O)[C@H](O)[C@H]1O; read-out = cell growth or viability; technique = MTT; time = 48 h; IC50 = 0.57 µM
SMILES = C1CCN(C2CCNCC2)CC1.CCCC(CCC)C(=O)[O][Pt]([OH])([Cl])[Cl].CCCCN; read-out = cell growth or viability; IC50 = 15.5 µM
SMILES = CC(C)C(O)C(NC(=O)[C@H](Cc1ccc(O)cc1)NC(=O)C(Cc1ccc(O)cc1)[N+](C)(C)C)C(=O)N[C@@H](C)C(=O)O (some centres unmarked); read-out = cell growth or viability; IC50 = > 100 µM
SMILES = COCC12CN(C)C3C4C(OC)C1C3(C(OC)CC2O)C1CC2(O)C(OC)C(O)C4(O)C1C2OC(=O)c1ccccc1 (centres unmarked); read-out = cell growth or viability; technique = MTT; IC50 = 25.9 µM
SMILES = COc1ccc2c(c1)C(=NNC(=O)c1cc3cc(OC)ccc3[nH]1)C(=O)N2Cc1ccccc1; read-out = cell growth or viability; IC50 = 0.9 µM
SMILES = COc1ccnc(-c2cc(OC)ccn2)c1.[C-]#[O+].[C-]#[O+].[C-]#[O+].[Re+]; read-out = cell viability; IC50 = 9.7 ± 4.1 µM
SMILES = C=CC[P](c1ccccc1)(c1ccccc1)[Pt]([S]c1nc2ccccc2s1)([S]c1nc2ccccc2s1)[P](CC=C)(c1ccccc1)c1ccccc1; read-out = cell growth or viability; technique = MTT; IC50 = 20.2 µM
SMILES = C=C1C2CC3(C1O)C1CC4C5(C)CCC(O)C4(C1N(CC)C5)C3CC2O (centres unmarked); read-out = cell growth or viability; technique = MTT; IC50 = 25.2 µM
SMILES = CC1OC(OC2CCC3(C)C(CCC4C3CCC3(C)C(C5=CC(=O)OC5)CCC43O)C2)C(O)C(O)C1OC1OC(CO)C(O)C(O)C1O (centres unmarked); read-out = cell growth or viability; technique = MTT; time = 48 h; IC50 = 0.09 µM
SMILES = COC(=O)[C@@H](NC(=O)[C@@H](NC(=O)[C@@H](NC(=O)[C@@H]1CCCN1C(=O)[C@H](C)NC(=O)OC(C)(C)C)C(C)C)C(C)C)C(C)C; read-out = cell growth or viability; technique = SRB; IC50 = 1 µM
SMILES = CC(C)C[C@H](NC(=O)[C@H](C)NC(=O)[C@H](CCCCN)NC(=O)[C@H](CC(C)C)NC(=O)[C@H](C)NC(=O)[C@H](CC(C)C)NC(=O)[C@H](CCCCN)NC(=O)[C@H](CC(C)C)NC(=O)[C@H](C)NC(=O)[C@H](CC(C)C)NC(=O)[C@@H](N)CCCCN)C(=O)N[C@@H](CCCCN)C(=O)N[C@@H](C)C(=O)N[C@@H](C)C(=O)N[C@@H](CC(C)C)C(=O)N[C@@H](CCCCN)C(=O)N[C@@H](CC(C)C)C(=O)N[C@@H](C)C(N)=O; read-out = cytotoxicity; IC50 = 2.1 µM
SMILES = C[C@H]1O[C@@H](O[C@H]2CC[C@@]3(C)[C@H](CC[C@@H]4[C@@H]3CC[C@]3(C)[C@@H](C5=CC(=O)OC5)[C@@H](O)C[C@]43O)C2)C[C@H](O)[C@@H]1O; read-out = cell growth or viability; technique = MTT; time = 48 h; IC50 = 0.27 µM
SMILES = OC[C@H]1[C@@H](O)[C@@H](O)CN1Cc1ccc(I)cc1; read-out = cell growth or viability; technique = MTS; time = 72 h; IC50 = > 200 µM
SMILES = CC[C@H](C)[C@@H]1NC(=O)[C@@H]2CCCN2C(=O)[C@@H]2CCCN2C(=O)[C@H]([C@@H](C)CC)NC(=O)[C@H](CO)NC(=O)[C@H](CCCCN)NC(=O)[C@H]([C@@H](C)O)NC(=O)[C@@H]2CSSC[C@H](NC1=O)C(=O)N[C@@H](Cc1ccccc1)C(=O)N1CCC[C@H]1C(=O)N[C@@H](CC(=O)O)C(=O)NCC(=O)N[C@@H](CCCNC(=N)N)C(=O)N2; read-out = cell growth or viability; technique = ATP luminescence; time = 72 h; IC50 = > 100 µM
SMILES = CCCCCCCCc1ccc(C(=O)N[C@@H](CO)C(=O)N[C@H](C(=O)N[C@@H](C)C(=O)N[C@H](C(=O)O)[C@@H](C)CC)[C@@H](C)OP(=O)(O)O)cc1; read-out = cell growth or viability; technique = MTT; time = 72 h; IC50 = 79.5 µM

For quick reference, copied from above:
SMILES = CC(=O)O[C@H]1C[C@H](O[C@H]2[C@@H](O)C[C@H](O[C@H]3[C@@H](O)C[C@H](O[C@H]4CC[C@@]5(C)[C@H](CC[C@@H]6[C@@H]5CC[C@]5(C)[C@@H](C7=CC(=O)OC7)[C@@H](O)C[C@]65O)C4)O[C@@H]3C)O[C@@H]2C)O[C@H](C)[C@H]1O[C@@H]1O[C@H](CO)[C@@H](O)[C@H](O)[C@H]1O; read-out = cell growth or viability; technique = MTT; time = 48 h; IC50 = 0.57 µM
SMILES = C1CCN(C2CCNCC2)CC1.CCCC(CCC)C(=O)[O][Pt]([OH])([Cl])[Cl].CCCCN; read-out = cell growth or viability; IC50 = 15.5 µM
SMILES = CC(C)C(O)C(NC(=O)[C@H](Cc1ccc(O)cc1)NC(=O)C(Cc1ccc(O)cc1)[N+](C)(C)C)C(=O)N[C@@H](C)C(=O)O (some centres unmarked); read-out = cell growth or viability; IC50 = > 100 µM
SMILES = COCC12CN(C)C3C4C(OC)C1C3(C(OC)CC2O)C1CC2(O)C(OC)C(O)C4(O)C1C2OC(=O)c1ccccc1 (centres unmarked); read-out = cell growth or viability; technique = MTT; IC50 = 25.9 µM
SMILES = COc1ccc2c(c1)C(=NNC(=O)c1cc3cc(OC)ccc3[nH]1)C(=O)N2Cc1ccccc1; read-out = cell growth or viability; IC50 = 0.9 µM
